Measured values of several laboratories.
Numbered parts are unrelated; each lists some results of a single study. Substitutions count along the parent as printed.

Series 1
Target: Eukaryotic initiation factor 4A-I (EIF4A1, Homo sapiens, UniProt P60842, residues 1-406, full length assumed)
Chain of UniProt P60842 (whole entry, looked up): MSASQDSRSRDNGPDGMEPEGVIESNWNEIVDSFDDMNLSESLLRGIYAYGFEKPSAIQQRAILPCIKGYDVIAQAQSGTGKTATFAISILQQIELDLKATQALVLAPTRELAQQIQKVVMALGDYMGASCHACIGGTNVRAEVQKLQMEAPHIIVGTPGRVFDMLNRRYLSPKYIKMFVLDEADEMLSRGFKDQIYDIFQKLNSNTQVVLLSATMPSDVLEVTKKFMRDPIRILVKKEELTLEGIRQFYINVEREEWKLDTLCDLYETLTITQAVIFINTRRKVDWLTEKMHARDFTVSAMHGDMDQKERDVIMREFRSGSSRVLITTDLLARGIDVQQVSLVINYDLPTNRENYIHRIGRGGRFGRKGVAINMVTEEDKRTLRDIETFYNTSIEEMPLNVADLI
Technique: RNA Bind-n-Seq
Molecule type: RNA
Sample: in vitro
Tested at: 90 pmol
Notes: 4-mer, random 30-nt RNA, single round
Together with: 3 µM iPr-DMDA-PatA, 2 mM ADP, 2 mM phosphate
Relative to: input library
Reading: higher = stronger binding
`UGGA` gave a 4-mer enrichment of 0.981 fold.
`CGCG` gave a 4-mer enrichment of 0.71 fold.
`UAAG` gave a 4-mer enrichment of 1.2 fold.
For `UAUU`, the 4-mer enrichment was 1.21 fold.
`CGGC` gave a 4-mer enrichment of 0.65 fold.
`GCUC` has a 4-mer enrichment of 0.826 fold.
For `UUCU`, the 4-mer enrichment was 1.03 fold.
`UAGC` gave a 4-mer enrichment of 0.968 fold.

Series 2
Target: Sal-like protein 4, full length isoform B (SALL4, Homo sapiens, UniProt Q9UJQ4-2, residues 1-616)
Technique: universal PBM
Molecule type: double-stranded DNA, one strand shown
Sample: in vitro
Tested at: not given
Notes: 8-mer, flanks averaged, mean of replicates
Reading: higher = stronger binding
The E-score of `GGCCGGTA` is reported as -0.175.
`ATGATTTA` has an E-score of 0.282.
`GTTTAGTA` has an E-score of 0.228.
For `CCGCTGCA`, the E-score was -0.186.
The E-score of `CCGTGGAA` is reported as -0.013.
With `CGTGGTTA` the E-score was -0.0508.
The E-score of `CCCGGTCA` is reported as -0.269.
`AGTCAGAT` has an E-score of 0.0615.

Series 3
Target: FOSL2, bZIP domain (human)
Technique: DHFR protein complementation
Sample: yeast
Notes: single substitutions, most at no-binding floor
Relative to: wild-type JUN-FOS pair
Reading: higher = stronger binding
Starting sequence: JUN, bZIP domain (human); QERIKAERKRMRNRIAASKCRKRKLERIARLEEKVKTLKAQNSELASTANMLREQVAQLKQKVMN; partner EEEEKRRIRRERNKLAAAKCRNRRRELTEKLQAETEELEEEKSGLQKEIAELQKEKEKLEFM
With `A40T` the binding fitness was 0.13 natural log.
`K39P` has a binding fitness of -1.05 natural log.
`N42Q` has a binding fitness of -0.512 natural log.
`M51C` has a binding fitness of 0.00877 natural log.
With `M51L` the binding fitness was 0.107 natural log.
`Q41I` gave a binding fitness of 0.0682 natural log.
For `T48W`, the binding fitness was -0.0584 natural log.
For `E33W`, the binding fitness was -0.119 natural log.

Other studies, line by line
Starting sequence: viral docking peptide; KGVKRKLFAEDSS
`K4V` — result for “normalised enrichment score”: 1.04 (CCND1, cyclin fold, Cln2 fusion (human); yeast growth competition, sequencing; yeast; strong parent motif; relative to: not given, higher = stronger binding).

Repeated from above (series 2):
`GTTTAGTA` has an E-score of 0.228.
`ATGATTTA` has an E-score of 0.282.
The E-score of `CCGTGGAA` is reported as -0.013.
